Results of several laboratories.
Every numbered part comes from another study and shows a few of its results, in no order.

Block 1
Target: RING finger protein unkempt homolog, zinc fingers 1-6, SBP tag (UNK, Homo sapiens, UniProt Q9C0B0, residues 30-357)
Chain of UniProt Q9C0B0 (30-357, looked up): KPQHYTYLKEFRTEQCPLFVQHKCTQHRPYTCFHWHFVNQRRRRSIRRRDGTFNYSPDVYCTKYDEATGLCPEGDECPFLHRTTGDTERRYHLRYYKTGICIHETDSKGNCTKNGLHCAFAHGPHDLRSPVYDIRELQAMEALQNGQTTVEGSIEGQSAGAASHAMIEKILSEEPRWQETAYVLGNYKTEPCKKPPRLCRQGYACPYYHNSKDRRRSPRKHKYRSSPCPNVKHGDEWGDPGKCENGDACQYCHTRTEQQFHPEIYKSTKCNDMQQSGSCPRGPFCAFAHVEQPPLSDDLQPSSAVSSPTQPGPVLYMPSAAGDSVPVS
Technique: RNA Bind-n-Seq
Molecule type: RNA
Sample: in vitro
Concentration: 100 nM
Notes: RNA with constant flanks, vertebrate orthologous sites, ends assumed
Baseline: input RNA pool
Direction: higher = stronger binding
Constant ends, left off below: GGGAGUUCUACAGUCCGACGAUC … CAACAGAGGAUUGAGCAUCA
| Strand | bound/input enrichment |
| --- | --- |
| GGGCGGCCCGUGGGGGAAUUCCCUGCCUUGGCCUUACCUCCCCUUCCUGCCACUUGCCCCUAGUUAUUUUUUUUUUUUUACCACCAUGUGAUUAAGGUCGGCGCUGCCUCCCCCGACCCA | 9.88 ratio |
| CCGAGGCUUUGUAUUUGGCUGCACUUGCAUAAGCUGCUACAAAUAGUUUAAAGAAUUUCAUAGCCUGUAUCUAUCAUUUAGAUGCAUGGUCAAUGGGCUUUGCACACAAUGGGCUUGGAG | 0.638 ratio |
| GUUGUGAUCCUUUUAACAUACACAAAAAACUUGCCAAGAAAAAUUUGCAUGCGAUUGACUUAGAUGAUGCCACUUUCCUAAGUGCCAAGUUUGGAAGACAGCUUGUACCUGGUUGGAAGC | 0.535 ratio |
| GUCAUUUUUUUUUUCACAUUUCCUGUAAAUAGUGGAUAAUCGUUUUUUUAUUUUAUUUUUAAGUGCUGUGUUAACAAUGUGGAUAGACCAUAAAUGUACUUGCUGAAUUCAUACAUUUUU | 1.81 ratio |
| UCCUCAACUUGUUCUAGCUUGUGAUCCUUCAAAGUUGGGUCAGGCGUUAGUGCCAGGUACUAGAAAAUUUCAUUUCUCUAUUGCCACUGAUCAGAGAGACAGAUGUUAAAAACAGGAACA | 0.301 ratio |
| CAGCAGAUUCUCUCAUAGGGAGAGCUGCACACAUUGCUGUUCUUGAUUCAGAAAUAUUUUUAGAAAAAUUCUUUCUUGUUGCUGCCCUAAAAUAUUUUCAGUAAAGAAAGGCUUUGUCAG | 0.284 ratio |
| GUCCCUCAGUGACAGUAUGCCGUCUGUAGCCGAUUCCCACUCCAGUCACUUUUCUGAGUUUAGCUGCUCGGACUUAGAGAGCAUGAGAACGUCGUGUAUUCAUGGCUCCAGUGAUUGUCA | 0.34 ratio |
| UUUUAUCGAUCAGGUCUGUAAAUGUGAACUAAAAAAAUCAGAGUUUAUUUAUGAACAGAGUAGUUUAUUUGGAGAGCAGCUCUUGUCCCUUGGUCCUGUGGUCUGCACUCGCUACACUGU | 0.23 ratio |

Block 2
Target: TAR DNA-binding protein 43, full length, His tag (TARDBP, Homo sapiens, UniProt Q13148, residues 1-414)
Technique: RNA Bind-n-Seq
Molecule type: RNA
Sample: in vitro
Concentration: 20 nM
Notes: 6-mer, flanks averaged, single round
Together with: 150 mM KCl
Baseline: input library
Direction: higher = stronger binding
| Strand | 6-mer enrichment (R) |
| --- | --- |
| GCUCUG | 0.794 |
| AUGCGA | 0.853 |
| AAUGAA | 0.822 |
| GGGAGU | 3.54 |
| UUUUCG | 0.626 |
| UUGCCC | 0.663 |
| GACUAA | 0.697 |
| GCAUGC | 0.992 |

Block 3
Target: POU domain, class 5, transcription factor 1, POU domain (Pou5f1, Mus musculus, UniProt P20263, residues 131-289)
Chain of UniProt P20263 (131-289, looked up): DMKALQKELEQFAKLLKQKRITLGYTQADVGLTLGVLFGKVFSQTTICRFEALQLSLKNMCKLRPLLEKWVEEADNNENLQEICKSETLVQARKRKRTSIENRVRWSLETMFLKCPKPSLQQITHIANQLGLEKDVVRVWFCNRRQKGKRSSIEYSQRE
Technique: Spec-seq
Molecule type: double-stranded DNA, one strand shown
Sample: in vitro
Concentration: not given
Notes: whole probe, mean of replicates
Baseline: not given
Direction: lower = stronger binding
Constant ends, left off below: GAGTCGTCTCGTCAGCAC … CCGTAGAGCACTCAGGTC
| Strand | relative binding energy |
| --- | --- |
| ATTTATAT | -0.369 ln ratio |
| TTCATAAT | 0.283 ln ratio |
| ATTCTGAT | 0.162 ln ratio |
| TAACTAAT | 0.107 ln ratio |
| ATAGTAAT | 0.4 ln ratio |
| ATGCTTAG | 0.447 ln ratio |
| ATAGAGAT | 0.663 ln ratio |
| ATGTTTAT | -0.32 ln ratio |

Mixed results
| Structure (SMILES) | cell line | assay | test system | setting | how to read | endpoint | result |
| --- | --- | --- | --- | --- | --- | --- | --- |
| O=C1CCc2cc(Nc3cc(OC4CCOCC4)c([N+](=O)[O-])cc3Cl)ccc2N1 | normal organoid sample H | CellTiter-Glo | human, normal-adjacent epithelium | 1 µM | baseline: DMSO | viability | 110% |

For quick reference, copied from above (mixed results):
| Structure (SMILES) | cell line | assay | test system | setting | how to read | endpoint | result |
| --- | --- | --- | --- | --- | --- | --- | --- |
| O=C1CCc2cc(Nc3cc(OC4CCOCC4)c([N+](=O)[O-])cc3Cl)ccc2N1 | normal organoid sample H | CellTiter-Glo | human, normal-adjacent epithelium | 1 µM | baseline: DMSO | viability | 110% |
